Measured values collected from several papers.
Each line is one published result; not all experiments were run side by side. ± marks the error that the study gave.
SLC6A3 D313N: Sodium-dependent dopamine transporter (SLC6A3, Homo sapiens, UniProt Q01959, D313N)
UniProt Q01959, sequence (whole entry, unmodified, looked up): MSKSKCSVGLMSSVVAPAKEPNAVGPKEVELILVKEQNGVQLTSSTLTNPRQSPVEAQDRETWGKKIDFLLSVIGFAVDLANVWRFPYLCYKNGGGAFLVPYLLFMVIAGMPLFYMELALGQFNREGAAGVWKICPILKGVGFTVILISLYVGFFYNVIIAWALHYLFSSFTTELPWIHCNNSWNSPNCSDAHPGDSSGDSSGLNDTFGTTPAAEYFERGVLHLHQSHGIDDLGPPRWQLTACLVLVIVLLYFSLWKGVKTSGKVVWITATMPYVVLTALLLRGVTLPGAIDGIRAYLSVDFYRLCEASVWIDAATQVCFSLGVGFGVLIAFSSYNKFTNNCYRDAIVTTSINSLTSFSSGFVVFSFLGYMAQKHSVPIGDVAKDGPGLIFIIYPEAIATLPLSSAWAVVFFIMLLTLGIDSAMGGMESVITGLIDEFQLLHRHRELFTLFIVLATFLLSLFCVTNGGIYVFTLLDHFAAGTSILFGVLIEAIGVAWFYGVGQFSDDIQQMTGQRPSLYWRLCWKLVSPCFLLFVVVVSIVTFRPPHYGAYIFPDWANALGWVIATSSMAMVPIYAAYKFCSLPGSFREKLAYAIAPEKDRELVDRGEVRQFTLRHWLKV
UDP-3-O-acyl-N-acetylglucosamine deacetylase C40S: UDP-3-O-acyl-N-acetylglucosamine deacetylase (Pseudomonas aeruginosa, UniProt P47205, C40S)
DNA polymerase III PolC-type: DNA polymerase III PolC-type (Bacillus subtilis, UniProt P13267)
UniProt P13267, sequence (whole entry, looked up): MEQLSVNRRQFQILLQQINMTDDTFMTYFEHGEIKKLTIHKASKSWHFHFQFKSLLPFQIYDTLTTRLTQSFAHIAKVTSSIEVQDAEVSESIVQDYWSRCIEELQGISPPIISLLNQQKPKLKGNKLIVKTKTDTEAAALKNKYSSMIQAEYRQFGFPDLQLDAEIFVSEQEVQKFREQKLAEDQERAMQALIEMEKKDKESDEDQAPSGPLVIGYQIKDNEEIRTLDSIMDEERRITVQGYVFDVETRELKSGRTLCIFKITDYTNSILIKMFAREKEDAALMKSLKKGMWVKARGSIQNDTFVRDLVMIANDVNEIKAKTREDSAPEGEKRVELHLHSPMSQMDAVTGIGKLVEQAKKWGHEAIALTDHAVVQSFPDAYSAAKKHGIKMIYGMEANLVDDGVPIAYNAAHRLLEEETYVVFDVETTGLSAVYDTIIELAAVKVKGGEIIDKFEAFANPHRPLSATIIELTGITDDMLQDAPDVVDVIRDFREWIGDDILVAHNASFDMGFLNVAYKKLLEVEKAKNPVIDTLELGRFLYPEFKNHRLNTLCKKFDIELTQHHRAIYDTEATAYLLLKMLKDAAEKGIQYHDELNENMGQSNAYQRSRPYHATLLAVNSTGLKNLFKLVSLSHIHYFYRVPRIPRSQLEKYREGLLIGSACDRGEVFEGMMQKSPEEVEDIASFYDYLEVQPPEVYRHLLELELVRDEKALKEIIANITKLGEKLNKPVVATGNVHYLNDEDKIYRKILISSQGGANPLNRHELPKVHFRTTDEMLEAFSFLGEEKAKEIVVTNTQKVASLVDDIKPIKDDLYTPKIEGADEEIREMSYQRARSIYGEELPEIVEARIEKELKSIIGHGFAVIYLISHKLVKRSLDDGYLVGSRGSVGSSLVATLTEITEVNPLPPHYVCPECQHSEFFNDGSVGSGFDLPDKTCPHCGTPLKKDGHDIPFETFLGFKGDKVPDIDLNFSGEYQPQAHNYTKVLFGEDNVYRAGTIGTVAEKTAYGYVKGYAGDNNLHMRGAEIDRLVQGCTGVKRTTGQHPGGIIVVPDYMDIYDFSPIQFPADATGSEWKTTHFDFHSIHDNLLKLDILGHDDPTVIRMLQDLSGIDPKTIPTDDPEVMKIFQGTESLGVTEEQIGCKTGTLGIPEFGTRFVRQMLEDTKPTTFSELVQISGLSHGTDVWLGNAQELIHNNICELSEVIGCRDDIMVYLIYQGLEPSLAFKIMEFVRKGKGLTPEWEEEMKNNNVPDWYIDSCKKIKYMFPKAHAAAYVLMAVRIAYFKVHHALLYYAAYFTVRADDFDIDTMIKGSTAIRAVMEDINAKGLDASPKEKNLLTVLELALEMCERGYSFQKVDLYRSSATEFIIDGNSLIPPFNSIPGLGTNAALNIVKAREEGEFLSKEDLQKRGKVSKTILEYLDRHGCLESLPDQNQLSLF
UniProt P09546, sequence (whole entry, looked up): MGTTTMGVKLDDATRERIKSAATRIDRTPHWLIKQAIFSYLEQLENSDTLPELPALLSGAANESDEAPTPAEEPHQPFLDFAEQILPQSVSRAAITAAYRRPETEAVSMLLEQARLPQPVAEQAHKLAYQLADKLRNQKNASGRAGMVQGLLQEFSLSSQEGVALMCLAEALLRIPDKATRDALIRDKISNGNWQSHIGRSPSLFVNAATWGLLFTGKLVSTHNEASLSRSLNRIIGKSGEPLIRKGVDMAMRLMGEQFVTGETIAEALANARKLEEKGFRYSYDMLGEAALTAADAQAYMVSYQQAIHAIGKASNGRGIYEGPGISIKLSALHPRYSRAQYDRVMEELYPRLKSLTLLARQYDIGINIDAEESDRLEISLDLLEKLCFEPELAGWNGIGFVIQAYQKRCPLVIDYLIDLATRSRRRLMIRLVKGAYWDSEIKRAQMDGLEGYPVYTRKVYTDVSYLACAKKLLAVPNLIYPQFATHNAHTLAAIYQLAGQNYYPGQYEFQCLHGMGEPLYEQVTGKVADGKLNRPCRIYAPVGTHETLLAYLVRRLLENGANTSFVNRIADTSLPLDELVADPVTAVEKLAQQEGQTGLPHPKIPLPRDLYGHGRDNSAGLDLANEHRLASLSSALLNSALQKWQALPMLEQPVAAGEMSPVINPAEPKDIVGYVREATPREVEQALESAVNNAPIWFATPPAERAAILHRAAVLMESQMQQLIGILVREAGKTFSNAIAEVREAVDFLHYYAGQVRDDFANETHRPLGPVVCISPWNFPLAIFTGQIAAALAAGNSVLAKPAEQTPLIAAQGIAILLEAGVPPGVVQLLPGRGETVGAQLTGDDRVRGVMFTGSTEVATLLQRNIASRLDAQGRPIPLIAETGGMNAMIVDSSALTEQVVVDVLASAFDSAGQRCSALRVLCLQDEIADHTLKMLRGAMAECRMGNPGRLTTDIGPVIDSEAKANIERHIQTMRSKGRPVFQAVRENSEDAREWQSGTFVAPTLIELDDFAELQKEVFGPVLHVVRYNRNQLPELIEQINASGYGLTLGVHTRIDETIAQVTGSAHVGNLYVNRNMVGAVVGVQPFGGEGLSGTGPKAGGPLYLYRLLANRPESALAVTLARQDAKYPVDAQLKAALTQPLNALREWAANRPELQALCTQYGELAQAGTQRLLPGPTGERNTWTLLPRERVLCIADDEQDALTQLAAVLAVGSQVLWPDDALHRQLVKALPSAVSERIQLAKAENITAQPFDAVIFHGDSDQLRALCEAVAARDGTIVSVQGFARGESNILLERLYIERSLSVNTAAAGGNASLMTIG
UniProt P19652, sequence (whole entry, looked up): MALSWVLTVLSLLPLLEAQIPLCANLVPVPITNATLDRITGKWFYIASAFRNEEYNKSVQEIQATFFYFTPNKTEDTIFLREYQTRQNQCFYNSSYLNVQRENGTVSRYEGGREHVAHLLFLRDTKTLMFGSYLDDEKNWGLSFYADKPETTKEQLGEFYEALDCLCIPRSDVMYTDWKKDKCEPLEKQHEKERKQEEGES
UniProt P05182, sequence (whole entry, looked up): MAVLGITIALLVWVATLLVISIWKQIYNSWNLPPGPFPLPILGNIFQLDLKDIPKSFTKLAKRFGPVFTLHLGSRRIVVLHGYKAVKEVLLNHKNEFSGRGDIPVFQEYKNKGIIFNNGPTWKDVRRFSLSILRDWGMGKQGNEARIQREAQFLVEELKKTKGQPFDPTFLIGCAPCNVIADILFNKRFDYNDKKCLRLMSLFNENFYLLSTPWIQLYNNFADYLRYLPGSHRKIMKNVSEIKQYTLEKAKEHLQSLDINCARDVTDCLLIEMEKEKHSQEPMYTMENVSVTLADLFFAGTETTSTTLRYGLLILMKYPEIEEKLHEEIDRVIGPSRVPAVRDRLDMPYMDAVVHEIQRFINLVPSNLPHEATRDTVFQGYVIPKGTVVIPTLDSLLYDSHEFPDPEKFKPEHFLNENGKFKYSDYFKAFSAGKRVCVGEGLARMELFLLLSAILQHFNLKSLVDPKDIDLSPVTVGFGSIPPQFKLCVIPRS
UniProt P05183, sequence (whole entry, looked up): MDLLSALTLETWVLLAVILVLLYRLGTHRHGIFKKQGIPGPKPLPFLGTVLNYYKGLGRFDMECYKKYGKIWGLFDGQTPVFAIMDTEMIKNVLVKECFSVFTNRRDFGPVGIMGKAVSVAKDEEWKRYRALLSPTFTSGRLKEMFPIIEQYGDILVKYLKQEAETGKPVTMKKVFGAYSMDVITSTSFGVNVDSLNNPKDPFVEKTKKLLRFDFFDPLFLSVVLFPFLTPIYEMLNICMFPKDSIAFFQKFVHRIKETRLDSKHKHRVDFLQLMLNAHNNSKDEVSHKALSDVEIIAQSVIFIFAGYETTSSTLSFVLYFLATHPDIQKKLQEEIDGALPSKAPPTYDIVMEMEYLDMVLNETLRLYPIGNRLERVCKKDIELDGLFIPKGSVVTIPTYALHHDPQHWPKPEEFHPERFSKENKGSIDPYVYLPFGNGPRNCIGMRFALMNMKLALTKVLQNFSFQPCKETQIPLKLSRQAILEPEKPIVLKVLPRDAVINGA

`CN1[C@@H]2CC[C@H]1C[C@@H](OC(=O)c1ccccc1)C2` has a Ki of 10.19 ± 0.0534 µM (SLC6A3 D313N; binding; HEK293 expressing DAT D313N; 0 mM Na+ with NMDG-Cl buffer, with: [3H]CFT).
`C/C(=C\C(=O)OCCCCCCCC(=O)Nc1c2sscc-2[nH]c1=O)[C@@H](O)[C@@H]1OC[C@H](C/C=C/[C@@H](C)[C@H](C)O)[C@@H](O)[C@H]1O` has a Ki of 0.019 ± 0.004 µM (Isoleucine--tRNA ligase (ileS, Staphylococcus aureus, UniProt Q5HGN8); adenylation activity, inhibitor, ATP-PPi exchange; enzyme 6.5 nM, preincubation, with: L-isoleucine 2 mM).
`C=CC(O)CO` (stereo not shown) gave a Ki of 1200 µM (Cytochrome P450 2E1 (Cyp2e1, Rattus norvegicus, UniProt P05182); 4-nitrophenol oxidation, inhibitor; F344 rat liver microsomes; 30 min, pH 7.4, inhibitor binding to substrate-bound enzyme, with: 4-nitrophenol).
With `NC[C@H](NC(=O)c1ccc(C#CC#Cc2ccccc2)cc1)C(=O)NO` the Ki was 0.00987 µM (UDP-3-O-acyl-N-acetylglucosamine deacetylase C40S; enzyme activity, inhibitor).
For `O=C(O)c1cccc(Cc2c[nH]c3ccc(-c4ccc5cc[nH]c5c4)cc23)c1`, the Ki was 3.1 µM (Envelope glycoprotein gp160, gp41 hydrophobic pocket (env, Human immunodeficiency virus type 1 group M subtype B, UniProt P04578, K574X)).
The Ki of `C[C@@H](O)[C@H](NC(=O)c1ccc(-c2ccc(Br)cc2)cc1)C(=O)NO` is reported as 0.000741 µM (UDP-3-O-acyl-N-acetylglucosamine deacetylase C40S; enzyme activity, inhibitor).
`COc1ccc2c(c[n+](C)c3c4cc5c(cc4ccc23)OCO5)c1OC` gave a Ki of 17.4 µM (Cytochrome P450 3A2 (Cyp3a2, Rattus norvegicus, UniProt P05183); Sprague-Dawley rat, male; 30 (unit not given), pH 7.4).
The Ki of `C=C(C)[C@H](CC=C(C)C)Cc1c(O)cc(OC)c2c1O[C@H](c1ccc(O)cc1O)CC2=O` is reported as 65.1 ± 3.53 µM (MAOA (Homo sapiens, UniProt P21397); enzyme activity, inhibitor, MAO-Glo).
With `CC(C)[C@H](N)C(=O)OCCCCCn1cnc2nc(NCc3ccc(Cl)c(Cl)c3)[nH]c(=O)c21` the Ki was 0.48 µM (DNA polymerase III PolC-type; inhibitor).
`COc1[nH]c(=O)c(C(=O)[C@@H](C)C[C@H](C)[C@@H](Cl)CCl)c(O)c1OC` gave a Ki of 97 ± 8 µM (putA (Escherichia coli, UniProt P09546); dead-end competitive inhibitor; pH 7.4, 20 °C, with: 100 mM proline, CoQ1 substrate).
`[O]=[V]([OH])([OH])[OH]` gave a Ki of 0.73 µM (Alkaline phosphatase PafA (pafA, Elizabethkingia meningoseptica, UniProt Q9KJX5); pH 8).
The Ki of `c1ccc(C(OCCN2CCNCC2)c2ccccc2)cc1` is reported as 0.635 ± 0.0418 µM (SLC6A3 D313N; binding; HEK293 expressing DAT D313N; 0 mM Na+ with NMDG-Cl buffer, with: [3H]CFT).
`CCc1cc(Nc2cc(=O)n(CCCCO)c(=O)[nH]2)ccc1C` has a Ki of 0.13 µM (DNA polymerase III PolC-type; enzyme activity, inhibitor; truncated polymerase, no dGTP, 4% DMSO).
For `CN(C)C(=O)C(CCN1CCC(O)(c2ccc(Cl)cc2)CC1)(c1ccccc1)c1ccccc1`, the Ki was 11.9 µM (Alpha-1-acid glycoprotein 2 (Homo sapiens, UniProt P19652); competitive inhibitor, ultrafiltration; 15 min, 37 °C, with: [3H]S-disopyramide).
For `CN1CCN(CCOC(c2ccccc2)c2ccccc2)CC1`, the Ki was 0.317 ± 0.0432 µM (SLC6A3 (Homo sapiens, UniProt Q01959); binding, [3H]CFT binding inhibition; HEK293; 15 min, 20 °C, with: 130 mM Na+).
The Ki of `O=C(O)CNCP(=O)(O)O` is reported as 841 ± 61 µM (EPSP synthase (Zea mays, UniProt A0A1D6NVZ6, K358R/P168S/T164I)).

Some of these lines once more:
`C=CC(O)CO` (stereo not shown) gave a Ki of 1200 µM (Cytochrome P450 2E1 (Cyp2e1, Rattus norvegicus, UniProt P05182); 4-nitrophenol oxidation, inhibitor; F344 rat liver microsomes; 30 min, pH 7.4, inhibitor binding to substrate-bound enzyme, with: 4-nitrophenol).
The Ki of `C[C@@H](O)[C@H](NC(=O)c1ccc(-c2ccc(Br)cc2)cc1)C(=O)NO` is reported as 0.000741 µM (UDP-3-O-acyl-N-acetylglucosamine deacetylase C40S; enzyme activity, inhibitor).
